Results pooled from the literature.
Numbered parts are unrelated; each lists some results of a single study.

Set 1
Target: RNA binding protein fox-1 homolog 2, RRM domain, GST-SBP tag (RBFOX2, Homo sapiens, UniProt O43251-10, residues 100-194)
Method: RNA Bind-n-Seq
Molecule type: RNA
Sample: in vitro
Tested at: 365 nM
Notes: natural RNA segment, single round, ends assumed
Reference: no-protein control
Reading: higher = stronger binding
Target sequence (chain): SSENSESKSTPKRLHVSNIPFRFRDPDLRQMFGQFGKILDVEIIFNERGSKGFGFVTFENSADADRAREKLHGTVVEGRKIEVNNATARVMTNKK
Under “RBNS enrichment (R)”, `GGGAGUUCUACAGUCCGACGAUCAUGUGACUUUGGGCGAGUCUCAGUGCCACUUGGUCCCCAGCCAUGGACUCUAUACAGUGAGGGCCACUCACCGACCUGAGUCAGUGUCCUCUGUCUCACAGGGCCCCUCUUGGAAUUCUCGGGUGCCAA` is recorded as 0.192.
`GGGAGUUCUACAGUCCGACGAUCGGCGUUGGUACACAGGCAAGGAUUGGCACAACCAAAAUUGGCCUUUUUCUCCCUCUUAAUAUUGAAGAAAUUCCCACAUUUCUCAUUUGGUAAUGGUGUUGUGGCCUCAGUGGAAUUCUCGGGUGCCAA`: “RBNS enrichment (R)” 0.413.
Under “RBNS enrichment (R)”, `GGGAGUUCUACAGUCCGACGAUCACUUGUAGACAUUUAUUUAUACUGUGUCAUGUUUUAUAAUUUAUACAUAAAAUGUCUGGUUGACUGUAUACCUUGUUUUUGAAGAAAUUUAUUCGUGAAAGGAAGAGCAGUGGAAUUCUCGGGUGCCAA` is recorded as 0.862.
`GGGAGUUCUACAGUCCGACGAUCAUCUUGGAGAAUAAAAAAGGACUUGGAAAACAAGUCUUAGUAGUCAUUCAGAGGACUCAAGUACUAGUGCUAGGUCUCUUUCCUUCCACUCUCUCUCUCUCUCUCUCUCUUGGAAUUCUCGGGUGCCAA` — result for “RBNS enrichment (R)”: 0.389.
For `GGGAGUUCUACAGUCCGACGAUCUUCCAUAAGUAGAACAAGAUAGAUUCUACCCCCAAAAUAUUCAUAAGCAAAUCCCACUGCCCUUAAAAUAAGGAAGUUAUGCCUGGUUGUCUGUGAAUGGAACCUCAGUAUGGAAUUCUCGGGUGCCAA`, “RBNS enrichment (R)” read 0.65.
Under “RBNS enrichment (R)”, `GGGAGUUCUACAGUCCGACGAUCCCAUUAUCCAUUCCCAAGAUGCCUGAUCAGAAACCAACCAUGAAUGAACCCCUGGCUCCUUCACCACCCCCACGAUUGGUAUGAUGCUGCCGGCACAGCUGGGAUACACAUGGAAUUCUCGGGUGCCAA` is recorded as 0.661.
Under “RBNS enrichment (R)”, `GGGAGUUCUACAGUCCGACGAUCAAGGUGAAGAAUGAAGGCGAAGAGGCAGACUCCUACCCCGACACCCUCCCUGCCUGUUCCUGCCUCCUGCACCCUCCCCAGCACCUGCCACACUGACUAUGUCUUUAGGAUGGAAUUCUCGGGUGCCAA` is recorded as 0.704.
`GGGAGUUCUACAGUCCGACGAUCUGGAAGGGACACCCCAGCCAGGGACGGAAUGCCUGGUCUUGAGCAACCUCCCACUGCUGGAGUGCGAGUGGGAAUCAGAGCCUCCUGAAGCCUCUGGGAACUCCUCCUGUUGGAAUUCUCGGGUGCCAA`: “RBNS enrichment (R)” 0.453.

Set 2
Target: Sal-like protein 4, full length isoform A (SALL4, Homo sapiens, UniProt Q9UJQ4, residues 1-1053)
Chain of UniProt Q9UJQ4 (whole entry, looked up): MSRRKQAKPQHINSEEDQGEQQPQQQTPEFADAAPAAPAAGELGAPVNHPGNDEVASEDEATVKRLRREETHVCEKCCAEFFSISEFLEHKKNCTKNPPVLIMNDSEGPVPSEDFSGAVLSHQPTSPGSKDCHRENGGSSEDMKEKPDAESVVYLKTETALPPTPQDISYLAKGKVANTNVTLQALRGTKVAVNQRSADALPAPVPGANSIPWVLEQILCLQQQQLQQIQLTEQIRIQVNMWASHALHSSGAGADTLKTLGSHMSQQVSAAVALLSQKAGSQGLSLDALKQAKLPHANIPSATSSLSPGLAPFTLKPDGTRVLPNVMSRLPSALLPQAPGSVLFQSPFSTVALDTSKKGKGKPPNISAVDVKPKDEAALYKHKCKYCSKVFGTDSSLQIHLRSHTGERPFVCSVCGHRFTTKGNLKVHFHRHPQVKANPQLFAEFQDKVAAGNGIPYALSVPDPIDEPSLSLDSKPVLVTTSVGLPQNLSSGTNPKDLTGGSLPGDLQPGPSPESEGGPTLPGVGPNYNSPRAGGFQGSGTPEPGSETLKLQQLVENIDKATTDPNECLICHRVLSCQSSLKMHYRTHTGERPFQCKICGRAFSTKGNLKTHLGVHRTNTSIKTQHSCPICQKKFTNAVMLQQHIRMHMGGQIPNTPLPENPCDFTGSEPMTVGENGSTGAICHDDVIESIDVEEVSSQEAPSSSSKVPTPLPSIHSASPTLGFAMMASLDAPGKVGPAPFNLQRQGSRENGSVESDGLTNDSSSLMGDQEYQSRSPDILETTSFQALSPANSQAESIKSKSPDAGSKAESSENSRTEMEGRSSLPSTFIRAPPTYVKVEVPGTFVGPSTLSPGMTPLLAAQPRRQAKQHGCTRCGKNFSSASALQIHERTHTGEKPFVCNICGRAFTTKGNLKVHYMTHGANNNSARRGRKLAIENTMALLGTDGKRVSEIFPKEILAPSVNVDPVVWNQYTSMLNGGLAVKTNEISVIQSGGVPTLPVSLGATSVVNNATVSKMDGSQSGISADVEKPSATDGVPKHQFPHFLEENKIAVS
Method: universal PBM
Molecule type: double-stranded DNA, one strand shown
Sample: in vitro
Tested at: 600 nM
Notes: 8-mer, flanks averaged, mean of replicates
Reading: higher = stronger binding
For `ACCCCCGT`, the E-score was -0.379.
For `CTGCAGCA`, the E-score was -0.0639.
With `GGGCGCCA` the E-score was -0.337.
The E-score of `CTTAAAAC` is reported as 0.157.
`CTAGTCGC` has an E-score of -0.261.
The E-score of `AACGGTTG` is reported as 0.0695.
`CTTAGCAA` gave an E-score of 0.0366.
For `GGGAAGAA`, the E-score was -0.12.
The E-score of `CGTTGTCA` is reported as -0.138.
`GTCGCCTA` gave an E-score of -0.237.
For `TCTCCGCA`, the E-score was -0.208.
`AAATGGGT` has an E-score of 0.128.
With `GCCCTTCA` the E-score was -0.187.
`CGCTTCAA` has an E-score of 0.0178.
For `ACTCGAAG`, the E-score was -0.0621.
`GCATGGCC` has an E-score of -0.208.
The E-score of `GGGCCCCC` is reported as -0.473.
`ATTCGCTA` has an E-score of 0.0847.
With `CGGTCGGC` the E-score was -0.381.
The E-score of `ATACACGA` is reported as 0.0912.
For `ACTATGAA`, the E-score was 0.321.
`CAACCCTG` gave an E-score of -0.157.
With `CATCCAAA` the E-score was 0.0309.
`GCACACCA` gave an E-score of -0.25.

Set 3
Target: Histone acetyltransferase KAT6A, winged helix 1, GST fusion (KAT6A, Homo sapiens, UniProt Q92794, residues 1-85)
Method: protein binding microarray
Molecule type: double-stranded DNA, one strand shown
Sample: in vitro
Tested at: not given
Notes: 8-mer, flanks averaged, mean of 2 arrays, mostly near background
Reference: not given
Reading: higher = stronger binding
Target sequence (chain): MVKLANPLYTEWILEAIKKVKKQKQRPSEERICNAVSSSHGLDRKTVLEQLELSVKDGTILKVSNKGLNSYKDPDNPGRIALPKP
For `CCTGAAAC`, the E-score was 0.0616.
For `TCTAAAAA`, the E-score was -0.0565.
With `GTAATCCA` the E-score was -0.188.
`CAATGAGG` gave an E-score of -0.197.
The E-score of `ATTGCACA` is reported as -0.258.
`AAGTAGCA` gave an E-score of -0.248.
The E-score of `GTGCCCGA` is reported as 0.0719.
`GAAGAGCC` has an E-score of 0.172.
`AAAATGCC` has an E-score of -0.101.
`CATACAAC` gave an E-score of -0.0722.
For `CAATGTTC`, the E-score was -0.056.
The E-score of `GTCCCGTA` is reported as 0.265.
For `ATGTATCC`, the E-score was -0.0208.
The E-score of `GGGTCGCA` is reported as 0.154.
`ATCGAAGC` gave an E-score of 0.0367.
`AATCAGAT` gave an E-score of -0.223.
The E-score of `AGAGTGCC` is reported as -0.176.
For `CCAAGGGG`, the E-score was -0.0183.
With `AGGGGTGG` the E-score was -0.147.
`ATCATACG` gave an E-score of -0.00379.
For `TATCTCCA`, the E-score was -0.172.
`ACTGTTGC` has an E-score of -0.0242.
For `CTAACCCC`, the E-score was 0.00626.
With `AACAAGGA` the E-score was -0.103.
The E-score of `CCTTATGA` is reported as -0.0694.

Set 4
Target: Fragile X messenger ribonucleoprotein 1, C-terminal low-complexity region (Fmr1, Mus musculus, UniProt P35922)
Method: RNA Bind-n-Seq
Molecule type: RNA
Sample: in vitro
Tested at: 200 nM
Notes: whole 134-nt RNA, ends assumed
Together with: 150 mM LiCl
Reference: input library
Reading: higher = stronger binding
Each molecule: 7-deaza-guanosine replaces G
`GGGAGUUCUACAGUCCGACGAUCUUCAGUUGGAUGGAUUUAUUGCUCGAAACUGGGCCAAUCAAAGAUCAGCUUUGGGAAGUGCUCUUGAUCCACUUGCUGAUAAAAUACUUAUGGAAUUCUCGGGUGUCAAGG` has a log2 enrichment of -2.93.
With `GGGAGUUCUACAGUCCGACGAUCCACAGACAACACGCACCCACACAGACACAGAGGGAAGGGGUUAGGAUGGGGACAGGGUGCACAGCAGGGCGGGGUAGGACCCCAGCCCCUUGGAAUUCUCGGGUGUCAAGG` the log2 enrichment was -0.823.
With `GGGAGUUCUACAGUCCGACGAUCCAAGUCCUGUGCUACACAUCGUAUGUACCGAAUCGGUGGUUUUUGGUUUUUUUGGAAAGUAUUAUGUUACGCCGUUCGGAUCUGCACUUCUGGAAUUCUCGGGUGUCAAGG` the log2 enrichment was -1.03.
`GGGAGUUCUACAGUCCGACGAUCCCUGUGCUACACAUCGUAUGUACCGAAUCGGGGAAAGGGGAAAAAGGGGUUUUUUUGGGGAAAGUAUUAUGUUACGCCGUUCGGAUCUGCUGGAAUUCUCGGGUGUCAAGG` has a log2 enrichment of -0.55.
`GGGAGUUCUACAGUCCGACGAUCUUACUACCUCCGCCUUCAUUUCCGUCAGCAAUCCCGGCGCGGGCUCCCCGGCCCCCGCCAGCCCGCCUCCCCUCGCUGUGCCCGGGACCGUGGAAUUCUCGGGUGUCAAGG` has a log2 enrichment of 1.87.
`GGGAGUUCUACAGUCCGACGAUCCACAGACAACACGCACCCACACAGACACAGAGGGAAGGGGUUGGGAUGGGGACAGGGUUCACAGCAGGGCGGGGUAGGACCCCAGCCCCUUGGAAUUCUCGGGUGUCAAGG` has a log2 enrichment of 0.0671.
The log2 enrichment of `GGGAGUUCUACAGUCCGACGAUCUGAAAAUGCUUUCAUGUUAAUUGUGUACACACAUUUCAUCUGUAUCCCUGUUUCUUUUCUCCCUACAGAAACAUAUGAGGAUUUUGAUACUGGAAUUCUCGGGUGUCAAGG` is reported as 0.304.
`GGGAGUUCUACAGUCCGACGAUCUGACCCUGGUGGCAUGCGGGGAGGAAGAGGUGGCCUCAUGGAUCGUGGUGGUCCCGGUGGAAUGUUCAGAGGUGGCCGUGGUGGAGACAGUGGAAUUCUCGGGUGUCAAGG` has a log2 enrichment of -0.431.
